# Earlier results, collected from citations in different studies.
# Lines come from different studies, so protocols differ.
# Chain of UniProt P23975 (whole entry, looked up): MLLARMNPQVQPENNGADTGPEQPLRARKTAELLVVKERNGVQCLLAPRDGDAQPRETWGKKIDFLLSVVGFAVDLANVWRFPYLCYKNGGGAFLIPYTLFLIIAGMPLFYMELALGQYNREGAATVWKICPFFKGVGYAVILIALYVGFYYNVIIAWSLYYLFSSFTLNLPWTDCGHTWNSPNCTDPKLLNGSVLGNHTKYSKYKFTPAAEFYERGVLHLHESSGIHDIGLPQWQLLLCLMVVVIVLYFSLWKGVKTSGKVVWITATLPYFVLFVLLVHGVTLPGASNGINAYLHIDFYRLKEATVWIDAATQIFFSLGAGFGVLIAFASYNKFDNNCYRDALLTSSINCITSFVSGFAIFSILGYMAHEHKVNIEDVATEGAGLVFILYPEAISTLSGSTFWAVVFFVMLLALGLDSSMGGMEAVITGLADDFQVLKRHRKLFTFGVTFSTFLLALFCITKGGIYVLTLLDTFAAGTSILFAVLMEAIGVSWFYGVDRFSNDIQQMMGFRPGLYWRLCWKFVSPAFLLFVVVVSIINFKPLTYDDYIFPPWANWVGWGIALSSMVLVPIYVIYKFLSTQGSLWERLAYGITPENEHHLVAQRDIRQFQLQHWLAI
# Chain of UniProt Q01959 (whole entry, looked up): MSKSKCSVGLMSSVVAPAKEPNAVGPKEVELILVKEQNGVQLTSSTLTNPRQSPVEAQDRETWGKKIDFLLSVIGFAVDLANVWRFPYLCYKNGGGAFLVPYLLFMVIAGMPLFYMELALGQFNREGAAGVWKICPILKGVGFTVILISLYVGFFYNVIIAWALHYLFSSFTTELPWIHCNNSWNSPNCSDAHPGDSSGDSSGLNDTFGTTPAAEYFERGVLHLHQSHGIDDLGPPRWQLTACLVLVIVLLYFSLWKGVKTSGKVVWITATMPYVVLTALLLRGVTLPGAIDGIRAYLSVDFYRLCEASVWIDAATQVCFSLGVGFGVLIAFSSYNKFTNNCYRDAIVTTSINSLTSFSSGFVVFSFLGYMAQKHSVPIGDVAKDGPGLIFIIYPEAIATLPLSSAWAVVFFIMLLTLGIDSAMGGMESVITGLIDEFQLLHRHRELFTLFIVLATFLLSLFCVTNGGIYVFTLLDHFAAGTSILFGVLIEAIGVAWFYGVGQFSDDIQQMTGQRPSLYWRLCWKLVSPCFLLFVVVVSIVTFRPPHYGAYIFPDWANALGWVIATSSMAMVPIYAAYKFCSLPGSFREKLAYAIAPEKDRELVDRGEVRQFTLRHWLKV
SMILES,tested on,assay,test system,setting,endpoint,value
CO[C@@H](C)c1c(Nc2ccc([C@@H](N(C)C(=O)C3CCS(=O)(=O)CC3)C(F)(F)F)cc2)cnc2cc(Cl)nn12,MALT1 (human),cellular activity,,,IC50,1.9 µM
Cc1cnc(N2CC3(CCOCC3)C2)c(C(=O)Nc2ccc(C(=O)N3CCc4cc(C(=O)Nc5c(C)cccc5F)sc4-c4ccccc43)cc2)c1,respiratory syncytial virus,"viral replication, plaque reduction","cotton rat, lung homogenate",,ID50,0.0414 mg/kg
N#CN1CC[C@@H](C(=O)Nc2nc3c(s2)CN(C(=O)CN=[N+]=[N-])CC3)C1,UCHL1 human,biochemical potency,,,IC50,12.9 µM
CC(C)NCC(O)COc1ccc(CCOCC2CC2)cc1 (stereo not drawn),Toxoplasma gondii,,,concentration not given,activity,inactive
CSc1cccnc1N1CCN(Cc2nc3ccccc3[nH]2)CC1,DRD4,cell-based,,,IC50,> 10 µM
CCCNc1nc(C#Cc2ccc(Cl)s2)nc2c1ncn2[C@H]1[C@H](O)[C@H](O)[C@]2(C(=O)NC)C[C@H]12,"Sodium-dependent dopamine transporter (SLC6A3, Homo sapiens, UniProt Q01959)","[3H]dopamine uptake, inhibitor",,,IC50,> 8.7 µM
COc1ccc([C@@H]2Sc3ccccc3N(CCN(C)C)C(=O)[C@@H]2OC(C)=O)cc1,Toxoplasma gondii,parasite growth,,"concentration not given, drug repurposing screen",activity class,inactive
CNC(=O)[C@@]12C[C@@H]1[C@@H](n1cnc3c(NC)nc(C#Cc4ccc(Cl)s4)nc31)[C@H](O)[C@@H]2O,"Sodium-dependent noradrenaline transporter (SLC6A2, Homo sapiens, UniProt P23975)","[3H]noradrenaline uptake, inhibitor",,,IC50,> 10 µM
CN1CCN(c2cnc3c(C4CCN(C(=O)c5ccc(OC(F)(F)F)cc5N)CC4)ncnc3c2)CC1,MAPK7,cellular activity,,,IC50,0.115 µM
